# Experimental data of several laboratories.
# Each line is one published result; not all experiments were run side by side. “And” joins repeats or separate records; there may be more than shown. ± gives the spread as reported.
# PDGFRB: Platelet-derived growth factor receptor beta (PDGFRB, Homo sapiens, UniProt P09619)
# TOP2B: DNA topoisomerase 2-beta (TOP2B, Homo sapiens, UniProt Q02880)
# UCHL1: Ubiquitin carboxyl-terminal hydrolase isozyme L1 (UCHL1, Homo sapiens, UniProt P09936)
# BEST1: BEST1 (Homo sapiens, UniProt O76090)
# ADRA2C: Alpha-2C adrenergic receptor (ADRA2C, Homo sapiens, UniProt P18825)
# Voltage-dependent P/Q-type calcium channel subunit alpha-1A: Voltage-dependent P/Q-type calcium channel subunit alpha-1A (Homo sapiens, UniProt O00555)
Compound,target or system,assay,test system,conditions,scale,measurement,value
Oc1ccc([C@@H]2c3c(O)cc(O)cc3[C@@H]3c4c(cc(O)c5c4[C@@H]2[C@H](c2ccc(O)cc2)[C@H]5c2cc(O)cc4c2[C@@H](c2cc(O)cc(O)c2)[C@H](c2ccc(O)cc2)O4)O[C@H]3c2ccc(O)cc2)cc1,"Alpha-amylase 1A (AMY1A, Homo sapiens, UniProt P0DUB6)",enzyme activity,,5 µM,,Vmax,659 ± 96 µmol/min
Cc1cc(Nc2cc(N3CCN(C)CC3)nc(Sc3ccc(NC(=O)C4CC4)cc3)n2)[nH]n1,PDGFRB,"kinase activity, KinaseProfiler",,"0.03 µM, species human",relative to: control,remaining activity,108%
Cc1nc(CSc2nc(SCc3ccc(C(C)C)cc3)nc(=O)[nH]2)cs1,TOP2B,decatenation,,125 µM,,mean decatenated DNA,0.12%
C=CC(=O)N1CCC(C(=O)NCC(=O)N2CCN(c3nc(-c4cnc(N)nc4C(F)F)nc(N4CCOCC4)n3)CC2)CC1,"MET (Homo sapiens, UniProt P08581, M1250T)",KINOMEscan,,1 µM,,remaining binding,95%
CCN(CCO)CCCC(C)Nc1ccnc2cc(Cl)ccc12 (stereo not drawn),"SCN5A (Homo sapiens, UniProt Q14524)","sodium current, whole-cell patch clamp",,"100 µM, without ATX-II",,half-inactivation voltage (V1/2),-89.1 mV and -80 mV and -95.8 mV
O=c1nc(SCc2cc(F)cc(C(F)(F)F)c2)nc(SCc2ccc3sccc3c2)[nH]1,TOP2B,decatenation,,"31.25 µM, replicate 1",,decatenated DNA,0%
CC(CC(C)(C)c1ccccc1)NS(=O)(=O)c1cccc(Cl)c1O (stereo not drawn),malate dehydrogenase,"enzyme activity, inhibitor",,"200 µM, pH 7.0, 1% DMSO, aggregation counter-screen",,remaining activity,81%
CCC(NC(=O)CCc1c(C)c2cc(Cl)c(O)cc2oc1=O)C(=O)O (stereo not drawn),"B4GALT1 (Homo sapiens, UniProt P15291)","enzyme activity, inhibitor, UDP-Glo",,10 µM,lower means stronger inhibition,luminescence,48700 a.u.
CCc1sc(C(=O)NC2CCN(C)CC2)cc1Br,Trypanosoma cruzi,"reporter translation, Renilla luciferase mRNA translation",cell-free extract,40 µM,relative to: DMSO,inhibition,-1.3%
CC(Cl)C(=O)N(Cc1ccc(Cl)cc1)Cc1cnn(C)c1 (stereo not drawn),UCHL1,"covalent, intact protein LC-MS",,12.5 µM,,labelling,11%
CCC(=O)NS(=O)(=O)c1ccc(-c2c(-c3ccccc3)noc2C)cc1,"Vitamin D3 receptor (VDR, Homo sapiens, UniProt P11473)","reporter gene, Gal4 hybrid reporter",,50 µM,relative to: vehicle,activation,0.68 fold
CCn1ncc2c1-c1cnc(N)c(c1)O[C@H](C)c1cc(F)ccc1-c1nn(C)nc1C2,"CD74-ROS1 (CD74/ROS1, Homo sapiens, UniProt P04233+P08922, G2032R)",tumour growth,"Balb/c nude mice, intracranial CD74-ROS1 xenograft","3 mg/kg twice daily, day 24",relative to: initial,brain bioluminescence signal,≤ 4%
O=C(O)c1ccc(O)cc1,BEST1,whole-cell patch clamp,HEK293 transiently expressing channel,"concentration not given, membrane potential 60 mV",,current density,20.7 pA/pF and 36 pA/pF and 21.7 pA/pF and 50.7 pA/pF and 19.2 pA/pF and 24.8 pA/pF and 30.6 pA/pF
Nc1ncnc2c1ncn2[C@@H]1O[C@H](COP(=O)(O)CP(=O)(O)OP(=O)(O)O)[C@@H](O)[C@H]1O,"P2X purinoceptor 1 (P2RX1, Homo sapiens, UniProt P51575, R292A)",saturation binding,HEK293,25 nM,,specific binding,49 CCPM and 69.5 CCPM
O=C(O)C1=CCNCC1,BEST1,whole-cell patch clamp,HEK293 transiently expressing channel,"concentration not given, membrane potential -40 mV",,current density,-8.84 pA/pF and -9.82 pA/pF and -11.2 pA/pF and -28.6 pA/pF and -52.9 pA/pF and -22.4 pA/pF
Cc1cc(Oc2ncccc2CN2CCN(c3ccccc3C(F)(F)F)CC2)ccc1-c1c(C)c(=O)[nH]c(=O)n1C,ADRA2C,"binding, radioligand binding",,together with: [3H]rauwolscine,relative to: Ki alpha2B over Ki alpha2C,selectivity ratio,6
Cc1cc2nc3c(=O)[nH]c(=O)nc-3n(C[C@H](O)[C@H](O)[C@H](O)COP(=O)(O)OP(=O)(O)OC[C@H]3O[C@@H](n4cnc5c(N)ncnc54)[C@H](O)[C@@H]3O)c2cc1C,"Acyl-coenzyme A oxidase acox-1.1 (acox-1.1, Caenorhabditis elegans, UniProt O62140)",UV spectroscopy,,,,enzyme bound with compound,56% and 26.8% and 64% and 50% and 43% and 70%
Nc1nc2c(ncn2[C@@H]2O[C@H](COP(=O)(O)O)[C@@H](O)[C@H]2O)c(=O)[nH]1,"GUK1 (Homo sapiens, UniProt Q16774, R41A)","enzyme activity, NADH-coupled",,31.25 µM,,reaction rate,0.982 s⁻¹ and -0.301 s⁻¹ and 1.13 s⁻¹
COCCC(=O)N1CCC(Oc2ccccc2)C1 (stereo not drawn),"Leucine-rich repeat serine/threonine-protein kinase 2, WD40 domain (LRRK2, Homo sapiens, UniProt Q5S007)","binding, affinity selection mass spectrometry",,,relative to: other proteins in batch,fold enrichment,1.9
CCn1cc(C(=O)O)c(=O)c2cc(F)c(N3CCNCC3)nc21,Voltage-dependent P/Q-type calcium channel subunit alpha-1A,"ion current, antagonist, automated patch clamp",,,,IC30,> 30 µM
CN1CCN(c2cc(-c3ccncc3)c(-c3ccc4ccccc4c3)nn2)CC1,"LHCGR (Homo sapiens, UniProt P22888)","agonist, FLIPR",,12.5 µM,,activation,4.2%
Cc1cnc(C(=O)NCCNC(=O)Cn2[nH]c(=O)c3ccccc3c2=O)cn1,"TNKS (Homo sapiens, UniProt O95271)","enzyme activity, inhibitor",,,,ligand efficiency,0.51
COc1cc(-c2cncc3c2CN(C)Cc2cc(N4CCNCC4)ccc2-3)cc(OC)c1OC,"CLK1 (Homo sapiens, UniProt P49759)",kinase activity,,"1 µM, human enzyme, together with: ATP 10 µM",relative to: DMSO control,remaining activity,112%
CC(=O)N[C@H](C(=O)N[C@@H](CC(=O)O)C(=O)N1CCC[C@H]1C(=O)N1CCC[C@H]1C(=O)N[C@@H](CC(C)C)C(=O)N[C@@H](Cc1c[nH]cn1)C(=O)N[C@@H](CO)C(=O)N[C@H](C(=O)N[C@@H](C)C(N)=O)[C@@H](C)OP(=O)(O)O)C(C)C,"PLK1 (Homo sapiens, UniProt P53350)","polo-box domain binding, isothermal titration calorimetry",,"concentration not given, 25 °C",,binding stoichiometry,1
Cc1cc(Oc2ncccc2CN2CCN(c3ccccc3)CC2)ccc1-c1c(C)c(=O)[nH]c(=O)n1C,ADRA2C,"binding, radioligand binding",,together with: [3H]rauwolscine,relative to: Ki alpha2B over Ki alpha2C,selectivity ratio,8
O=C(O)Cc1ccccc1Nc1c(Cl)cccc1Cl,Voltage-dependent P/Q-type calcium channel subunit alpha-1A,"ion current, antagonist",HEK293,10 µM,,inhibition,4%
Cc1ccc(NC(=O)C(C#N)=Cc2cccc(C(F)(F)F)c2)c(C)c1,UCHL1,"covalent, intact protein LC-MS",,12.5 µM,,labelling,26.7%
COc1ccc(CN2CCCC(N3CCN(c4cccc(Cl)c4)CC3)C2)cc1OC (stereo not drawn),Trypanosoma cruzi,"reporter translation, Renilla luciferase mRNA translation",cell-free extract,40 µM,relative to: DMSO,inhibition,4.8%
C#CCCC1(CC[C@H](NC(=O)NCCCCCCNC(=O)NCCN)C(N)=O)N=N1,"FKBP1A (Homo sapiens, UniProt P62942)","photoaffinity labeling, in-gel fluorescence, measured: Alexa Fluor 647 click label",,"40 µM, UV irradiation 365 nm","relative to: probe over FKBP12 signal, higher = more labeling",normalized labeling ratio,0.185
CCCCC/C=C\C/C=C\CCCCCCCC(=O)O,"uncharacterized protein (Marinitoga piezophila, UniProt H2J7C1)","substrate, GC-FID",,"pH 6.0, 20 °C, 5% ethanol, 50 mM NaCl",,Km,17.4 ± 3.4 µM
[O-][S+]1CCCCS1 (stereo not drawn),"SOD1 (Homo sapiens, UniProt P00441, G94A)",intact protein LC-MS,"SOD1 G93A transgenic mice, whole blood","intravenous, 10 mg/kg, 48 h, mean of two mice",,target engagement,20.7%
COc1ccc2c(c1)CC(C)CC2NS(=O)(=O)c1cccc(Cl)c1O (stereo not drawn),malate dehydrogenase,"enzyme activity, inhibitor",,"200 µM, pH 7.0, 1% DMSO, aggregation counter-screen",,remaining activity,100%
CS(=O)(=O)NCCc1ccc(C(=O)CCl)cc1,UCHL1,"covalent, intact protein LC-MS",,12.5 µM,,labelling,10.1%
C=CC(=O)N1CCC[C@@H](n2nc(-c3ccc(Oc4ccccc4)cc3)c3c(N)ncnc32)C1,PDGFRB,,,10 µM,,remaining activity,26.8%
O=C(O)c1ccc(Nc2ncc3c(n2)-c2ccc(Cl)cc2C(c2c(F)cccc2F)=NC3)cc1,PKD2(h),kinase activity,,1 µM,,remaining activity,90%
O=C(CCl)N1N=C(c2cccs2)CC1c1ccc(F)cc1 (stereo not drawn),UCHL1,"covalent, intact protein LC-MS",,12.5 µM,,labelling,16.5%
CSCC(NS(=O)(=O)c1cnccc1C(=O)O)c1ccccc1Cl (stereo not drawn),malate dehydrogenase,"enzyme activity, inhibitor",,"200 µM, pH 7.0, 1% DMSO, aggregation counter-screen",,remaining activity,91%
CC(C)(C)c1ccc(C=C(C#N)C(=O)Nc2ccc(C(=O)O)cc2)cc1,UCHL1,"covalent, intact protein LC-MS",,12.5 µM,,labelling,22.7%
Fc1ccc([C@@H]2CCNC[C@H]2COc2ccc3c(c2)OCO3)cc1,Voltage-dependent P/Q-type calcium channel subunit alpha-1A,"ion current, antagonist, automated patch clamp",,,,IC30,1.27 µM
CNC(=O)Cn1ccc2ccc(NC(=O)C(C#N)=Cc3ccco3)cc21,UCHL1,"covalent, intact protein LC-MS",,12.5 µM,,labelling,8.83%
Cc1cc(Oc2ncccc2CN2CCN(c3cccc(Cl)c3Cl)CC2)ccc1-c1c(C)c(=O)[nH]c(=O)n1C,ADRA2C,"binding, radioligand binding",,together with: [3H]rauwolscine,relative to: Ki alpha2B over Ki alpha2C,selectivity ratio,5
Nc1ncnc2c1ncn2[C@@H]1O[C@H](COP(=O)(O)OP(=O)(O)OP(=O)(O)O)[C@@H](O)[C@H]1O,"P2X purinoceptor 1 (P2RX1, Homo sapiens, UniProt P51575)","ion current, agonist, two-electrode voltage clamp",Xenopus oocytes,"100 or 300 µM, first maximal application",,peak current,6310 nA

# Excerpt of the above:
Compound,target or system,assay,test system,conditions,scale,measurement,value
CS(=O)(=O)NCCc1ccc(C(=O)CCl)cc1,UCHL1,"covalent, intact protein LC-MS",,12.5 µM,,labelling,10.1%
C=CC(=O)N1CCC[C@@H](n2nc(-c3ccc(Oc4ccccc4)cc3)c3c(N)ncnc32)C1,PDGFRB,,,10 µM,,remaining activity,26.8%
O=C(O)c1ccc(Nc2ncc3c(n2)-c2ccc(Cl)cc2C(c2c(F)cccc2F)=NC3)cc1,PKD2(h),kinase activity,,1 µM,,remaining activity,90%
